Assay results of several laboratories.
Every numbered part comes from another study and shows a few of its results, in no order.

Series 1
Target: Fragile X messenger ribonucleoprotein 1, C-terminal low-complexity region (Fmr1, Mus musculus, UniProt P35922)
Method: RNA Bind-n-Seq
Molecule type: RNA
Sample: in vitro
Tested at: 200 nM
Notes: whole 134-nt RNA, ends assumed
Added: 150 mM LiCl
Reference: input library
Direction: higher = stronger binding
Library: 7-deaza-guanosine replaces G
Shared flanks, not repeated: GGGAGUUCUACAGUCCGACGAUC … UGGAAUUCUCGGGUGUCAAGG
Strand | log2 enrichment
UGGGAGGUGGAUUUUGUUUAUUUUUUUAGCCCAUUUCCAGGGGUGGGAAUUUUUUUUUAAUAUGUGUCAUGAAUAAAGUUGUUUUUGAAA | -0.127
GUCCUGUGCUACACAUCGUAUGUACCGAAUCGGGGCCCCCGGGGCCCCCGGCCCCCGGAAAGUAUUAUGUUACGCCGUUCGGAUCUGCAC | -1.13
UAACUUUAGAGGAGGAUCUGAUGGAUAUGGCAGUGGACGUGGAUUUGGGGAUUGCUAUAAUGGGUAUGGAGGAGGACCUGGAGGUGGCAA | -0.868
CUCAAGUCCUGUGCUACACAUCGUAUGUACCGAAUCGGGGAGGGAGGGAGGGGAAAGUAUUAUGUUACGCCGUUCGGAUCUGCACUUCCA | -0.483
CACCGACAACACGCACCCACACAGACACAGAGGGAAGGGGUUGGGAUGGGGACAGGGUGCACAGCAGGGCGGGGUAGGACCCCAGCCCCU | 0.343
UCAAGUCCUGUGCUACACAUCGUAUGUACCGAAUCGGGAAAAAGGGAGGGAGGGAAAGUAUUAUGUUACGCCGUUCGGAUCUGCACUUCC | -1.25
AAAAUGCAGGUGGGCAUCUUUGGGAAGUGGGGCAAGGGGGGGAUAGGGAGGGGGGUAACACUUUGGGAACAGGUGGUCCCAGGUCGUUUC | 1.28
GUCCUGUGCUACACAUCGUAUGUACCGAAUCGGUUUUUGGUUUUUUUGGUUUUUUUGGAAAGUAUUAUGUUACGCCGUUCGGAUCUGCAC | -1.6

Series 2
Target: Histone acetyltransferase KAT6A, winged helix 2, GST fusion (KAT6A, Homo sapiens, UniProt Q92794, residues 85-181)
Method: protein binding microarray
Molecule type: double-stranded DNA, one strand shown
Sample: in vitro
Tested at: not given
Notes: 8-mer, flanks averaged, mean of 2 arrays, mostly near background
Reference: not given
Direction: higher = stronger binding
Target sequence (chain): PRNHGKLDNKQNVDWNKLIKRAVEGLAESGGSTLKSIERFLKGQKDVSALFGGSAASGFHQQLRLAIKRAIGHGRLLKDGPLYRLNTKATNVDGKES
Strand | E-score
CAGTCGCC | 0.00791
CTGCATGC | 0.14
AGTTCGGA | -0.0101
ACATCAAG | -0.0865
CCAAAGCC | -0.0858
TAGACATA | -0.0101
GTTAATTA | 0.0202
TGTACGAA | 0.0376
TATAACGA | -0.0123
ACCTTACC | -0.0357
ATAATACG | 0.0668
ATCCTGGC | -0.0118
GATCATGC | 0.00154
CTAGAGGA | -0.0669
ATAATGAG | -0.143
AAAGTTGC | -0.0243

Series 3
Target: RNA binding protein fox-1 homolog 2, RRM domain, GST-SBP tag (RBFOX2, Homo sapiens, UniProt O43251-10, residues 100-194)
Method: RNA Bind-n-Seq
Molecule type: RNA
Sample: in vitro
Tested at: 365 nM
Notes: natural RNA segment, single round, ends assumed
Reference: no-protein control
Direction: higher = stronger binding
Shared flanks, not repeated: GGGAGUUCUACAGUCCGACGAUC … UGGAAUUCUCGGGUGCCAA
Target sequence (chain): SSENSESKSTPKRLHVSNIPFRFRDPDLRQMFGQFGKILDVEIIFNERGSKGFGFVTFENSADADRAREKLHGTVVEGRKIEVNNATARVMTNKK
Strand | RBNS enrichment (R)
AGAAAAAAAUAUACAAAGAAGUCAUCUUUUCAUUAAGUGGAUUCCCUGGUUCCUUUCCAGCUGGUUGUGGAAGUAAUGGCUAACAUCCUUCAGCUGACUUUGUCUACAAG | 0.389
CAUUACCGUGUACCUUUCCCAUUGUGGUCAUGCCAUUUGGCAGGGGGAGAAUGGGAGGCUUGGCCUUCUUUGUGAGGCAGUGUGAGCAGAAGCUGAUGCCAGCAUGUCAC | 2.68
GUUUCACCACCAAAUGCCUUUCCAGGCUGCCCUUCCAACACUCAGGAGAGCAUCCAGAUCCCUGGGCAGAGGCUCUACAUUCUUGGCUUUAGAGGUGGUGGCAGCGGCAG | 0.536
GCCCUGCCUCUAUGCACGCCCCCGGCAAAGGGCUUGUCAGUAGGUCCCCCUCAACUCCAUACUCAACAGGGAUGCACAGGAUUGCUAACAGAGGGCGGGGCACACCUCAG | 10.1
CAGUAUUCAGGAAUAUGUGAUUUUAGGAGUUUCUGAUCCUGUGUGUCAGAAUGGCACUAGUUCAGUUUAUGUCCCUUCUGAUAUAGUAGCUUAUUUGACAGCUUUGCUCU | 0.358
UUAUACUGUAAAUUAUGCAUUAUAAAGAGUUCAUUUAAGGAAAAUUACUUGGUACAAUAAUUAUUGUAAUUAAGAGAUGUAGCCUUUAUUAAAAUUUUAUAUUUUUCAAA | 1.23
UUAGCUGCAGGAAGGCCUCUUAGCCAGGCUAUUCCCAUUCCAUCCGCUCCCUUCUCCCCACCCAAACCCCACACUGCAGCAGGCAGGCCAGGGCGGGUGUGGGGCUGGCU | 0.284
AACAAUAAAGUUGGCUAGACCUUGUUUGGGGAAUUUUACAAAUUUUAUAAACUAUCUGUAGCAAUUAGGGUUUUUAUUUUACAUUAAAAAUGUAAACUGCUCCCCCUCUC | 0.345

Series 4
Target: Interferon regulatory factor 5, full length, phosphomimetic (IRF5, Homo sapiens, UniProt Q13568-2, residues 1-514, K96S/S451D/S453D/S456D/S462D)
Method: protein-binding microarray
Molecule type: double-stranded DNA, one strand shown
Sample: in vitro
Tested at: 250 nM
Notes: 60-bp whole probe
Added: salmon DNA 0.4 mg/ml
Reference: random background probes
Direction: higher = stronger binding
Shared flanks, not repeated: GCCTAGCAC … GTCTTGATTCGCTTGACGCTGCTG
Strand | log fluorescence [z-score]
GTCGGTCTCGGACTGGGGACGTGCTAG | -0.353
GACGGTTTCCTTTCCCTGTCGTGCTAG | 1.96
TCATGTCTGGGATTTTGACTGTGCTAG | -0.284
TAGACCTAGAAAGAAACCACGTGCTAG | 0.621
TTAGATATCGACTTTCGGTTAGTGCTA | 10.1
GCCGATATCAGACTGGAGACGTGCTAG | 0.595
TTAGATCTCGGTTTCGGTTAGTGCTAG | 8.91
TTAGATATCAGTCCCGATTAGTGCTAG | 0.932
AGAATGATCTTCCTTCATGGCGTGCTA | 0.288
TTAGATCTCGGACTGGATTAGTGCTAG | -0.135
TTAGGTTTGCTACTGCTTTAGTGCTAG | 0.0393
GACGATATCAGACTGGCGACGTGCTAG | 0.238
GTGTGTTTGAGTCTTCTCCTGTGCTAG | 0.149
GAAGGACTGGGGTATCGGGACGTGCTA | 0.0103
TCAGATTTTTAGTTAGAACTGTGCTAG | 0.478
TTAGACTTCAGTATCGATTAGTGCTAG | 7.07
GACTAACTGAGACTGGAGACGTGCTAG | -0.345
TCATTTGTTTCACTTCCTACTGTGCTA | 4.55
GTTGCTCTCTCACCACCTTCGTGCTAG | 0.227

Some of these lines once more (series 1):
Strand | log2 enrichment
GUCCUGUGCUACACAUCGUAUGUACCGAAUCGGGGCCCCCGGGGCCCCCGGCCCCCGGAAAGUAUUAUGUUACGCCGUUCGGAUCUGCAC | -1.13
UAACUUUAGAGGAGGAUCUGAUGGAUAUGGCAGUGGACGUGGAUUUGGGGAUUGCUAUAAUGGGUAUGGAGGAGGACCUGGAGGUGGCAA | -0.868
CUCAAGUCCUGUGCUACACAUCGUAUGUACCGAAUCGGGGAGGGAGGGAGGGGAAAGUAUUAUGUUACGCCGUUCGGAUCUGCACUUCCA | -0.483
CACCGACAACACGCACCCACACAGACACAGAGGGAAGGGGUUGGGAUGGGGACAGGGUGCACAGCAGGGCGGGGUAGGACCCCAGCCCCU | 0.343
UCAAGUCCUGUGCUACACAUCGUAUGUACCGAAUCGGGAAAAAGGGAGGGAGGGAAAGUAUUAUGUUACGCCGUUCGGAUCUGCACUUCC | -1.25
AAAAUGCAGGUGGGCAUCUUUGGGAAGUGGGGCAAGGGGGGGAUAGGGAGGGGGGUAACACUUUGGGAACAGGUGGUCCCAGGUCGUUUC | 1.28
GUCCUGUGCUACACAUCGUAUGUACCGAAUCGGUUUUUGGUUUUUUUGGUUUUUUUGGAAAGUAUUAUGUUACGCCGUUCGGAUCUGCAC | -1.6
